{"data": "Results gathered from unrelated publications", "GLP1R": "Glucagon-like peptide 1 receptor (GLP1R, Homo sapiens, UniProt P43220)", "note": "Protocols differ between the studies behind these lines. ± marks the error that the study gave.", "UniProt P28335, sequence (whole entry, looked up)": "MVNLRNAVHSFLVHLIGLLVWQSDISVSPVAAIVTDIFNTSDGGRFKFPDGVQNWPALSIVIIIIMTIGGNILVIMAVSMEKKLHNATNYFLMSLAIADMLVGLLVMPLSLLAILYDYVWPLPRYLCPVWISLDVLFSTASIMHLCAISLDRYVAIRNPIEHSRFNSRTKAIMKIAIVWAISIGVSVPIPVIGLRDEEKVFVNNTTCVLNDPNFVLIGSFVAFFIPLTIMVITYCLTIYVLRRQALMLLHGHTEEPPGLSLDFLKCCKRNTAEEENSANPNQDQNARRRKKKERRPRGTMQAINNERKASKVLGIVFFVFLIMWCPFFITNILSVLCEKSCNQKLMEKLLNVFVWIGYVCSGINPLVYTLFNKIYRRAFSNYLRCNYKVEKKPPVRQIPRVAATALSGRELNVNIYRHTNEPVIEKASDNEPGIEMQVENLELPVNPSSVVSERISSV", "UniProt Q704Y3, sequence (whole entry, unmodified, looked up)": "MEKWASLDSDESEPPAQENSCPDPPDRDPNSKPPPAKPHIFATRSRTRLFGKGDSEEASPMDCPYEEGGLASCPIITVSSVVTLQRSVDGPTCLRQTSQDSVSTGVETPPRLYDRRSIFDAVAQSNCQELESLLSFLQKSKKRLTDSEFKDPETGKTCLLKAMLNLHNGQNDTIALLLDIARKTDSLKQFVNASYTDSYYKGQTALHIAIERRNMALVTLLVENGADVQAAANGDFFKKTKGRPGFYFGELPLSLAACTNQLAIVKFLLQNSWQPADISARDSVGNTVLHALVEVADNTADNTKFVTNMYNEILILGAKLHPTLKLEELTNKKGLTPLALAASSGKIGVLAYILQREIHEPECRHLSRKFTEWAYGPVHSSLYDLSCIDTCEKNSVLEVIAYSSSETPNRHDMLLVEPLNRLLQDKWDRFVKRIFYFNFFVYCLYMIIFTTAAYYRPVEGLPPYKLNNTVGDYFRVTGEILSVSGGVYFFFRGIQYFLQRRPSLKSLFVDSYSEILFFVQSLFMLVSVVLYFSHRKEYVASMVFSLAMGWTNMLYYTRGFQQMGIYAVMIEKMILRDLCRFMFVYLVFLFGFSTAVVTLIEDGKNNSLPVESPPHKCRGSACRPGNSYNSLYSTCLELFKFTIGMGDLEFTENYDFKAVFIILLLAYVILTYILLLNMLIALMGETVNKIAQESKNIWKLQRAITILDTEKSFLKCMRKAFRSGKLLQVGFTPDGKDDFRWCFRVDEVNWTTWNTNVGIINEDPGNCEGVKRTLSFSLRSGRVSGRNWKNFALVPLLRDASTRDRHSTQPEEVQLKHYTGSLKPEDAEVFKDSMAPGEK", "UniProt P41180, sequence (whole entry, looked up)": "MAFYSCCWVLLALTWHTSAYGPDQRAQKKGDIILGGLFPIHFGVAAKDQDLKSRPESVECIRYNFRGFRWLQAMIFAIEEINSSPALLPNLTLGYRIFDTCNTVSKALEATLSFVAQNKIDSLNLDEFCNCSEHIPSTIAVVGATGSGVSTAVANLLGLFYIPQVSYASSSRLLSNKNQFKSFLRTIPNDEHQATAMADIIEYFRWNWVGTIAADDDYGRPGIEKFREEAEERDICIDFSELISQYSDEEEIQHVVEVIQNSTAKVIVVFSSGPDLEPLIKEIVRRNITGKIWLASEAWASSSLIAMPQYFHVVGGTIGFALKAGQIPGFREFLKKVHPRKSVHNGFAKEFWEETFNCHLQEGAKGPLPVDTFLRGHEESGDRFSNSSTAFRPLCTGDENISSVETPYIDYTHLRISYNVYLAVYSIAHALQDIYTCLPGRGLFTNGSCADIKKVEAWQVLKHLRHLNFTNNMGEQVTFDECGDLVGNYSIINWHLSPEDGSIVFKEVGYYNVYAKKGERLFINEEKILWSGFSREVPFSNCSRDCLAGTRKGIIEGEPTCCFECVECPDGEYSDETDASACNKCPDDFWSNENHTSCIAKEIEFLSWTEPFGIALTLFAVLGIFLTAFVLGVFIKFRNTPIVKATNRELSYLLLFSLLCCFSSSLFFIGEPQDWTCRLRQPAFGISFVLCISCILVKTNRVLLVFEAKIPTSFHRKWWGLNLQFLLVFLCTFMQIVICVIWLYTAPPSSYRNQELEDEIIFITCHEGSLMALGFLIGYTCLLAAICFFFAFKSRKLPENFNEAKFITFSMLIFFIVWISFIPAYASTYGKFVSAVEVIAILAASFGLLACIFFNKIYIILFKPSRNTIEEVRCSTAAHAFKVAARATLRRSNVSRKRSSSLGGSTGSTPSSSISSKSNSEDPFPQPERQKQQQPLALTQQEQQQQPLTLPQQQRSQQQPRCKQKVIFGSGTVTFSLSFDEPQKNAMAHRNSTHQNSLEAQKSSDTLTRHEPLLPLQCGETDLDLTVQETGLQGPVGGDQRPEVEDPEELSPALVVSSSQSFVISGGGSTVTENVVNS", "UniProt Q9HB89, sequence (whole entry, looked up)": "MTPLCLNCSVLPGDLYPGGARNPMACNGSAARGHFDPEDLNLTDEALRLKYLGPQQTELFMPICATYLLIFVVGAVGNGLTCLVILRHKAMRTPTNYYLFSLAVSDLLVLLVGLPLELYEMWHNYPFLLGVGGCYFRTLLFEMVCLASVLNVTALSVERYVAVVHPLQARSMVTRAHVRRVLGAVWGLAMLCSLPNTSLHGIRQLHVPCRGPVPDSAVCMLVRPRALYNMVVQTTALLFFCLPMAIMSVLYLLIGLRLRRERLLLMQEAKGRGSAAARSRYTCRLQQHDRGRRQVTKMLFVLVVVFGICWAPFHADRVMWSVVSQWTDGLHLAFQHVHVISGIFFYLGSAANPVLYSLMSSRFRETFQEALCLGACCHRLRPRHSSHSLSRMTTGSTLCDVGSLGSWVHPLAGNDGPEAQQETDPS"}
{"SMILES": "CC(C)=CCc1c(O)cc2oc3cc(O)c(O)c(CC=C(C)C)c3c(=O)c2c1O", "target": "Cyclin-dependent kinase 2, with cyclin E1 (CDK2, Homo sapiens, UniProt P24941)", "test": "kinase activity, inhibitor", "EC50 [nM]": 14200}
{"SMILES": "C[C@H](N)Cn1ncc2ccc3c(c21)CCCO3", "target": "HTR2C (Homo sapiens, UniProt P28335)", "test": "agonist, aequorin", "how to read": "may be range", "EC50 [nM]": "0.3 ± 0.15"}
{"SMILES": "COC(=O)C1=C(C)NC(C)=C(C(=O)OC)C1c1ccccc1[N+](=O)[O-]", "target": "CASR (Homo sapiens, UniProt P41180)", "test": "agonist", "EC50 [nM]": 210}
{"SMILES": "CC[C@H](C)[C@H](NC(=O)[C@H](Cc1ccccc1)NC(=O)[C@H](CCC(=O)O)NC(=O)[C@H](CCCNC(=N)N)NC(=O)[C@H](C)NC(=O)[C@H](C)NC(=O)[C@H](CCC(N)=O)NC(=O)[C@H](CCC(=O)O)NC(=O)[C@H](CCC(=O)O)NC(=O)[C@H](CC(C)C)NC(=O)[C@H](Cc1ccc(O)cc1)NC(=O)[C@H](CO)NC(=O)[C@H](CO)NC(=O)[C@@H](NC(=O)[C@H](CC(=O)O)NC(=O)[C@H](CO)NC(=O)[C@@H](NC(=O)[C@H](Cc1ccccc1)NC(=O)[C@@H](NC(=O)CNC(=O)[C@H](CCC(=O)O)NC(=O)[C@H](C)NC(=O)CCc1cnc[nH]1)[C@@H](C)O)[C@@H](C)O)C(C)C)C(=O)N[C@@H](C)C(=O)N[C@@H](Cc1c[nH]c2ccccc12)C(=O)N[C@@H](CC(C)C)C(=O)N[C@H](C(=O)N[C@@H](CCCNC(=N)N)C(=O)NCC(=O)N[C@@H](CCCNC(=N)N)C(=O)N[C@@H](CCCCNC(=O)COCCOCCNC(=O)COCCOCCNC(=O)CC[C@H](NC(=O)CCCCCCCCCCCCCCCCC(=O)O)C(=O)O)C(=O)NCC(=O)NCC(=O)N[C@@H](CO)C(=O)N[C@@H](CCCCNc1c(NCCCCCN(O)C(=O)CCC(=O)NCCCCCN(O)C(=O)CCC(=O)NCCCCCN(O)C(C)=O)c(=O)c1=O)C(=O)NCC(=O)NCC(=O)N[C@@H](CO)C(=O)N[C@@H](CCCCNc1c(NCCCCCN(O)C(=O)CCC(=O)NCCCCCN(O)C(=O)CCC(=O)NCCCCCN(O)C(C)=O)c(=O)c1=O)C(=O)O)C(C)C", "target": "GLP1R", "test": "cAMP reporter gene, agonist, CRE luciferase", "system": "BHK", "conditions": "without Zr, 0% HSA", "EC50 [nM]": 0.011}
{"SMILES": "CC(C)C[C@H](NC(=O)[C@H](Cc1ccccc1)NC(=O)[C@H](Cc1ccc(O)cc1)NC(=O)CNC(=O)[C@H](CCCCN)NC(=O)[C@H](CO)NC(=O)[C@H](CCC(N)=O)NC(=O)CNC(=O)[C@@H](NC(=O)[C@H](CO)NC(=O)[C@@H]1CCCN1C(=O)[C@H](CO)NC(=O)[C@H](CCC(N)=O)NC(=O)[C@H](Cc1ccc(O)cc1)NC(=O)[C@H](CCC(=O)O)NC(=O)[C@H](C)NC(=O)[C@H](CCCCN)NC(=O)[C@@H](N)Cc1ccccc1)C(C)C)C(=O)N[C@@H](Cc1ccccc1)C(=O)N[C@@H](CCCNC(=N)N)C(=O)N1CCC[C@H]1C(=O)N[C@@H](CCCNC(=N)N)C(=O)N[C@@H](CC(N)=O)C(N)=O", "target": "NMUR1 (Homo sapiens, UniProt Q9HB89)", "test": "beta-arrestin recruitment, agonist, PathHunter luminescence", "system": "CHO-K1", "conditions": "90 min, 37 °C", "EC50 [nM]": 0.69}
{"SMILES": "CC[C@H](C)[C@H](NC(=O)[C@H](Cc1ccccc1)NC(=O)[C@H](CCC(=O)O)NC(=O)[C@H](CCCNC(=N)N)NC(=O)[C@H](C)NC(=O)[C@H](C)NC(=O)[C@H](CCC(N)=O)NC(=O)[C@H](CCC(=O)O)NC(=O)[C@H](CCC(=O)O)NC(=O)[C@H](CC(C)C)NC(=O)[C@H](Cc1ccc(O)cc1)NC(=O)[C@H](CO)NC(=O)[C@H](CO)NC(=O)[C@@H](NC(=O)[C@H](CC(=O)O)NC(=O)[C@H](CO)NC(=O)[C@@H](NC(=O)[C@H](Cc1ccccc1)NC(=O)[C@@H](NC(=O)CNC(=O)[C@H](CCC(=O)O)NC(=O)[C@H](C)NC(=O)CCc1cnc[nH]1)[C@@H](C)O)[C@@H](C)O)C(C)C)C(=O)N[C@@H](C)C(=O)N[C@@H](Cc1c[nH]c2ccccc12)C(=O)N[C@@H](CC(C)C)C(=O)N[C@H](C(=O)N[C@@H](CCCCNc1c(NCCCCCN(O)C(=O)CCC(=O)NCCCCCN(O)C(=O)CCC(=O)NCCCCCN(O)C(C)=O)c(=O)c1=O)C(=O)NCC(=O)N[C@@H](CCCNC(=N)N)C(=O)N[C@@H](CCCCNC(=O)COCCOCCNC(=O)COCCOCCNC(=O)CC[C@H](NC(=O)CCCCCCCCCCCCCCCCC(=O)O)C(=O)O)C(=O)NCC(=O)NCC(=O)N[C@@H](CO)C(=O)N[C@@H](CCCCNc1c(NCCCCCN(O)C(=O)CCC(=O)NCCCCCN(O)C(=O)CCC(=O)NCCCCCN(O)C(C)=O)c(=O)c1=O)C(=O)O)C(C)C", "target": "GLP1R", "test": "cAMP reporter gene, agonist, CRE luciferase", "system": "BHK", "conditions": "with Zr, 1% HSA", "EC50 [nM]": 0.16}
{"SMILES": "CC[C@H](C)[C@H](NC(=O)[C@H](Cc1ccccc1)NC(=O)[C@H](CC(=O)O)NC(=O)[C@H](CCCNC(=N)N)NC(=O)[C@@H](NC(=O)[C@H](C)NC(=O)[C@H](CC(C)C)NC(=O)[C@H](CC(N)=O)NC(=O)[C@H](CC(=O)O)NC(=O)[C@H](CC(C)C)NC(=O)[C@@H](NC(=O)[C@@H](NC(=O)[C@H](CO)NC(=O)[C@H](CCSC)NC(=O)[C@H](CCC(=O)O)NC(=O)[C@H](CC(=O)O)NC(=O)[C@H](CO)NC(=O)[C@H](Cc1ccccc1)NC(=O)[C@H](CO)NC(=O)CNC(=O)[C@H](CC(=O)O)NC(=O)[C@H](C)NC(=O)[C@@H](N)Cc1c[nH]cn1)[C@@H](C)O)[C@@H](C)CC)[C@@H](C)O)C(=O)N[C@@H](CC(N)=O)C(=O)N[C@@H](Cc1c[nH]c2ccccc12)C(=O)N[C@@H](CC(C)C)C(=O)N[C@H](C(=O)N[C@@H](CCC(N)=O)C(=O)N[C@H](C(=O)N[C@@H](CCCCN)C(=O)N[C@H](C(=O)N[C@H](C(=O)N[C@@H](CC(=O)O)C(=O)O)[C@@H](C)O)[C@@H](C)CC)[C@@H](C)O)[C@@H](C)CC", "target": "GLP1R", "test": "reporter gene, agonist, CRE-luciferase", "system": "HEK-293T", "conditions": "12 h", "EC50 [nM]": 25.4}
{"SMILES": "CCCCC/C=C\\C/C=C\\C/C=C\\C/C=C\\CCCC(=O)NCCO", "target": "Trpv1 (Mus musculus, UniProt Q704Y3, T551S)", "test": "ion current, agonist, whole-cell patch clamp", "conditions": "24 °C, T551S, +80 mV", "EC50 [nM]": "6510 ± 640"}
{"SMILES": "CC[C@H](C)[C@H](NC(=O)[C@H](Cc1ccccc1)NC(=O)[C@H](CCC(=O)O)NC(=O)[C@H](CCCNC(=N)N)NC(=O)[C@H](C)NC(=O)[C@H](C)NC(=O)[C@H](CCC(N)=O)NC(=O)[C@H](CCC(=O)O)NC(=O)[C@H](CCC(=O)O)NC(=O)[C@H](CC(C)C)NC(=O)[C@H](Cc1ccc(O)cc1)NC(=O)[C@H](CO)NC(=O)[C@H](CO)NC(=O)[C@@H](NC(=O)[C@H](CC(=O)O)NC(=O)[C@H](CO)NC(=O)[C@@H](NC(=O)[C@H](Cc1ccccc1)NC(=O)[C@@H](NC(=O)CNC(=O)[C@H](CCC(=O)O)NC(=O)[C@H](C)NC(=O)CCc1cnc[nH]1)[C@@H](C)O)[C@@H](C)O)C(C)C)C(=O)N[C@@H](C)C(=O)N[C@@H](Cc1c[nH]c2ccccc12)C(=O)N[C@@H](CC(C)C)C(=O)N[C@H](C(=O)N[C@@H](CCCNC(=N)N)C(=O)NCC(=O)N[C@@H](CCCNC(=N)N)C(=O)N[C@@H](CCCCNC(=O)COCCOCCNC(=O)COCCOCCNC(=O)CC[C@H](NC(=O)CCCCCCCCCCCCCCCCC(=O)O)C(=O)O)C(=O)NCC(=O)NCC(=O)N[C@@H](CO)C(=O)N[C@@H](CCCCNc1c(NCCCCCN(O)C(=O)CCC(=O)NCCCCCN(O)C(=O)CCC(=O)NCCCCCN(O)C(C)=O)c(=O)c1=O)C(=O)N[C@@H](CCCCNc1c(NCCCCCN(O)C(=O)CCC(=O)NCCCCCN(O)C(=O)CCC(=O)NCCCCCN(O)C(C)=O)c(=O)c1=O)C(=O)O)C(C)C", "target": "GLP1R", "test": "cAMP reporter gene, agonist, CRE luciferase", "system": "BHK", "conditions": "with Zr, 1% HSA", "EC50 [nM]": 0.11}
{"SMILES": "Clc1cc2c(cc1Cl)Oc1cc(Cl)c(Cl)cc1O2", "target": "Uncharacterized protein (Takifugu rubripes, UniProt Q4JHL4)", "test": "reporter gene, agonist, dual-luciferase", "system": "COS-7", "conditions": "24 h", "EC50 [nM]": "0.98 ± 0.63"}
{"note": "Excerpt of the above:"}
{"SMILES": "CC(C)=CCc1c(O)cc2oc3cc(O)c(O)c(CC=C(C)C)c3c(=O)c2c1O", "target": "Cyclin-dependent kinase 2, with cyclin E1 (CDK2, Homo sapiens, UniProt P24941)", "test": "kinase activity, inhibitor", "EC50 [nM]": 14200}
